Measurements of several laboratories.
Every numbered part comes from another study and shows a few of its results, in no order.

Set 1 — method: RNA Bind-n-Seq; form: RNA; matrix: in vitro; concentration: 365 nM; relative to: no-protein control; reading: higher = stronger binding
Target: RNA binding protein fox-1 homolog 2, RRM domain, GST-SBP tag (RBFOX2, Homo sapiens, UniProt O43251-10, residues 100-194)
Setting: natural RNA segment, single round, ends assumed
All sequences stand within: GGGAGUUCUACAGUCCGACGAUC … UGGAAUUCUCGGGUGCCAA
Residues (chain): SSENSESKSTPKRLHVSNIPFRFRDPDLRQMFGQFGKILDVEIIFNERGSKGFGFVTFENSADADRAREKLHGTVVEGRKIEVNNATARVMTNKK
Strand	RBNS enrichment (R)
AAGUAAACGUGGAGUUGAUUUCUCUACUAAAUAACAGAAACCUCAGUUUUUCACUCCCAUUGUAAGUAACUUUUAUUUAAGUAAGUAAAAUCAGGUAGGAAAUCACCUUU	0.437
UUUUCUUUAUUAAAGUAUUCUUGUAAGACAGUUUUCUGUGUCAAGUAUUUGUGAAAUCAGAGCUGACAUGUAAGCUAUUCUUGUAAUAUCUCAUUAUUUUGAAAGAUUUA	0.529
CAUAUGGAAGUGGACUGAAUCCUAUGUAGAAACAUACACUGAACAUUGUUAUUCAUUUUGUAAAAUACUAGUGUUUAUUUUCAUUUUUUGUAAAAUUUAAACAUCGUAUG	0.688
UAUGGCUAUGAAUCAGGAAAGAGAUUAGAACAUUUAAUAAUGUAUGUACAGCUGGUGCUUAGUUUUUUUUUAAUCUAAAUUUAAUUACCUUAUUGGAUAUUUGAUAUUUG	1.13
CAGGCCCAGCGGGAGGGGGUUUUAUGUUUUGUUUCAAACAGAAAACACAACCUUAUUUUUCUUUACAAAAGCAAAAAAGGAAACCAAAAAAGAUACAGCCUUUGAAUGAU	0.736
AGCCAGGCAUGGUGGUAUACUCCAUUAAUCACUCAGGAGGCAGAGGCAGGUGGAUCUCUGUGAGUUUGAGGUCAGCCUGGUCUACAAAGCAAGUUCCAGGACAGCCAGGG	0.688
GUCUCUAGUCCUAACUUUUAAAGAUCUAAGGUUCCUUGGAAGUUAUUUGAAGGCCAAGAGACCUUUGCUCUGCUGUGUGAGUCAGCCAGUCAAAAGCCCAGAAAGGCAAA	0.343
AACUAGGCAGGCAAUGGCUCCAGUGCCCUCCCUCUGUUCCCUGGACCACCACCCCACGUAGCUGCUCACACCAGCCUCCGGGUGCCUCCCUCUGCUUGUACAGAGCCCAU	0.246
CGCUCCCUUCCCUAAGGAUCCACUCCUACAGUUCAUUUAGAGAAUGGCUACUGCUGAGUCCUCUGGGGUUGAGGGAAGGCGAGCCGGGCAGGGGCCAUGUCAUGUUAUUG	0.659
UGGGAAGAGGGGUUCUGGACUGUGCCUGCAUUAACUCCACGCUGGGGAGGGCGCGCUGCUGGUCCACAUUGGCUCCAUGGGGGAGCCCUCCCCUUGAGUUGGGGCUGAUA	1.21
CUCUGUCCUCCCUGUGGAAUCCCUCUGUGGGGCAGGAUGAGUCCUUUGGUGGCCCUCUACUCUAUUGUCCCACACCCUACAUUCUCUCCUCUGGACUCCCAAGGAGGCUG	0.58
CCUGGAACUUGCUUUAUAGUCCAGGCUGGCCUCACAUCCACAGAGACAUGCUAGGAUUAAGGGUGUGUGCCACUAUGCCUGGCUUAAGUCUUUUUCUCACUCAAACCUUC	0.795

Set 2 — method: RNA Bind-n-Seq; form: RNA; matrix: in vitro; concentration: not given; relative to: input RNA pool; reading: higher = stronger binding
Target: RING finger protein unkempt homolog, zinc fingers 1-6, GST-SBP tag (UNK, Homo sapiens, UniProt Q9C0B0, residues 30-357)
UniProt Q9C0B0, sequence (30-357, looked up): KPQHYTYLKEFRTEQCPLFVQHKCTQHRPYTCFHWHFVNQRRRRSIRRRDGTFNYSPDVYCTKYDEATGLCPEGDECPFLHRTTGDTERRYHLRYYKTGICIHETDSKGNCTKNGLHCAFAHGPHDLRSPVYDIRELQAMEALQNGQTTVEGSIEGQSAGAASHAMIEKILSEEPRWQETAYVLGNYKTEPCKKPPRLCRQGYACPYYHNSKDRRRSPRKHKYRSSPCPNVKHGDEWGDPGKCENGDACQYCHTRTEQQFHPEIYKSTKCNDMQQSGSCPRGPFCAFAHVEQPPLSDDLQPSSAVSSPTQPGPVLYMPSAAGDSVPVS
Setting: RNA with constant flanks, human and mouse sites, ends assumed
All sequences stand within: GGGAGUUCUACAGUCCGACGAUC … CAACAGAGGAUUGAGCAUCA
Strand	bound/input enrichment [ratio]
UACACUACAUUUUCUUGGUUAUGUUUGGCACAUGAAUAACAGACACAUGUGGUGUGCUCAUUUUUUAAUUUUGCCAAGCAUAUUUGUUGAUGCUUCUUGUUGUCGUUGUUACUUUGAAAA	0.426
GCAGACUUGGUAAAACCCAGGGUACAGUUAGAUUUUUUGUUGUUGUUGUAUUAUUUAAAUUAUAGCCUUCCAAAAACUGUUUUUGAUCAUAAUUGCUGUAUCAUUUGUAAUUUUUUUUAA	31.1
GCAAUAAAAUAUAAAUCAUUCUAUUGGAGAGAAAUGCAUUGUUUUCUGCCAGUGGAUAUUUUCUUUGAAAGUUUGCAGACUGAGAGGAGAGAGGCAGAGCAACGAUGUAGUGAAAUGUUG	0.286
AUUCGAUUGCUAUAUGCAAAGCGACCAGGAAUUGGACUUUCACCAUCCCAUAGGAGAUACCUGGGCUAUAUGUGUGACCUACUGGCAGACAAGCCCUACCGCCCUCACUUCAAGCCUCUC	0.184
UGUUUGGUUCUGUGUAUGCAGACACAUGAGCUGUGGGGUAACAAUCAAAACGUAAUCUUUCAUAGAUAGCCAUUACAUUUCUUUAAAUUUUUCAAUGCCGAUGUGUAUUCUAUAAGAGAA	18.3
AGUGAGACGGAAUGGAAUCUCCUGCAGAAAGAGGUACAUAAUGCUGGAAAUAAGCUUGGUAGACGUUGUGAUAUGUGUUCCAAUUAUGAAAAACAGUUACAAGGAAUUCAGAUUCAGGAA	0.258
GCCAACCAGGCGUCAGCUACUUCCGAAGAGUGUACGGUUGCAUGGGGAGUCUGCAACCAUGCUUUUCAUUUCCACUGCAUCUCUCGAUGGCUCAAAACGAGGCAGGUGUGUCCGUUGGAC	0.135
UAAACAAUCUUUUCUUUUUUUGUGGUUGUGUACUCAUUAUUGCUUGUUCGUCUUUUGCAAUUUAGAUAAAUGAUAUAACAUUAAACUCAAGGUGGUUGAGUUGCAGUAGGGAGUCGGAAG	7.04
CAGGUGACCCAAUGACAACAGAAGAUGAAAGGCAUUAAGAAAAGUCCUACGGAGGAAUCUCUGUACCUGGAGUACUCUCACCAAACAGAAGGCUGCAUCUUUCCUCUCCACACGUCUGUA	0.104
AUUUUGGCUCUCAUUUCACUCUUCAGUGUUCCUGUUAUUUAUGAACGGCAUCAGGCACAGAUAGAUCAUUAUCUAGGACUUGCAAAUAAGAAUGUUAAAGAUGCUAUGGCUAAAAUCCAA	0.486
UUCCACAUCAUUAUUCCAGUCAUGUGGAGCUUUGUAACUGGUCAUUUGCCUUCUUUCAUAAUUAGUGACGUAUGCGACGUAAAGCCACUAGAAAAGGCACAUCUUUUUAAUACUCAUUAU	0.214

Set 3 — method: protein-binding microarray; form: double-stranded DNA, one strand shown; matrix: in vitro; concentration: 250 nM; setting: 60-bp whole probe; with: salmon DNA 0.4 mg/ml; relative to: random background probes; reading: higher = stronger binding; all sequences stand within: GCCTAGCAC … GTCTTGATTCGCTTGACGCTGCTG
Target: Interferon regulatory factor 7, full length, phosphomimetic (IRF7, Homo sapiens, UniProt Q92985, residues 1-503, S101K/S471D/S472D/S475D/S476D/S477D/S483D/S484D/S487D)
Construct (chain): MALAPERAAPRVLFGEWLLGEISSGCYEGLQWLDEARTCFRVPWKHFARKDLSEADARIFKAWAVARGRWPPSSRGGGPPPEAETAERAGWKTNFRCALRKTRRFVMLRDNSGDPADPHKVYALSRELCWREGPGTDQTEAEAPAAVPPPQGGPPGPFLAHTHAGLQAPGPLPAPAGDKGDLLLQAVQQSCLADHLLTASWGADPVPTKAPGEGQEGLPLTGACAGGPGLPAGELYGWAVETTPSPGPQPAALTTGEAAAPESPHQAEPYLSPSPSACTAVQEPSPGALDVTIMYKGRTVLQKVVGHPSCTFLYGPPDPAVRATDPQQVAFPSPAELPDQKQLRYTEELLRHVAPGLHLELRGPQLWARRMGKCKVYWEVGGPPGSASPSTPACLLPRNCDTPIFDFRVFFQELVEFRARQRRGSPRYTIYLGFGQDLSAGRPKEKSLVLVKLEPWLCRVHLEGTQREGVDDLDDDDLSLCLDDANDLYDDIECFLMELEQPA
Strand	log fluorescence [z-score]
GACAGTCTCGGTATCGGGACGTGCTAG	2.05
GACGTTTCCAGTTTCGAGACGTGCTAG	6.46
GACGGTTTCGGTTTCGGGATGTGCTAG	13.9
GACGGTATGGGTATCGGGACGTGCTAG	-0.163
TTAGGTTTGCTTTTCCTTTAGTGCTAG	1.58
TCAAGCCTCTGCATTCCCACTGTGCTA	-0.816
TTAGATTTCAGTTTCGATTTGTGCTAG	13.2
GAAGATGTGTATATGACAATGTGCTAG	-0.561
GACGGTATCCTACTGCTCACGTGCTAG	-0.193
TGGGAAATTCCTCTGAGGCAGTGCTAG	-0.426
TTAGATTTCAGATTGGATTAGTGCTAG	0.464
GACGGACTGCTTTACCTGACGTGCTAG	0.121
GACGGTCTCGGTATCCGGACGTGCTAG	2.76
TTAGGTCTCCTTATCCTTTTGTGCTAG	0.659
AGGCTTTTTTTTTTTTTTTTGTGCTAG	0.0587
GACGGACTGGGGCTCGGGACGTGCTAG	-0.511
TGAGGTTTCGGGTTTCGGTTAGTGCTA	13.1
TTAGGACTGCTTCGCCTTTAGTGCTAG	0.6
GACGGTTTCGGACTGGGGGCGTGCTAG	5.11
TCATATTTATGTATACAACTGTGCTAG	0.978
AGAATCTTAGATATTAAACTGTGCTAG	-0.0521
GTCGATTTCAGTTTCGAGACGTGCTAG	6.03
TTAGATATCAGTATCGATGAGTGCTAG	-0.0347
TTAGGAATGGGTCTCGGTTAGTGCTAG	1
TCATGTTTGGCCCTGAAACTGTGCTAG	0.403

Set 4 — method: protein binding microarray; form: double-stranded DNA, one strand shown; matrix: in vitro; concentration: not given; relative to: not given; reading: higher = stronger binding
Target: Histone acetyltransferase KAT6A, winged helix 1, GST fusion (KAT6A, Homo sapiens, UniProt Q92794, residues 1-85)
Setting: 8-mer, flanks averaged, mean of 2 arrays, mostly near background
Residues (chain): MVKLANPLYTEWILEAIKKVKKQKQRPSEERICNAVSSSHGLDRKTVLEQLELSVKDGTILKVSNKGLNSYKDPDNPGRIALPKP
Strand	E-score
CGAGCCAC	0.0134
GAAGAGCC	0.172
CTTTGGCA	-0.206
AGGGGTGG	-0.147
AGCCCGTC	0.334
TAGGATAA	-0.117
CGAAGACA	0.108
AATGTAGC	-0.121
ATCACAGG	-0.211
ATTGCACC	-0.106
CATTCTCA	-0.0918
CTCTTCAC	-0.161
GAGCCCTA	0.00404
CCAACCGA	-0.116
CGCAGACC	0.237
ATTTGAAA	-0.0819
